Measured values collected from several papers.
Compare with care: the assays were run in different laboratories. ± gives the spread as reported.
Cell line: HeLa

With CC[C@H](C)[C@@H]([C@@H](CC(=O)N1CCC[C@H]1[C@H](OC)[C@@H](C)C(=O)N[C@H](C)[C@@H](O)c1ccccc1)OC)N(C)C(=O)[C@@H](NC(=O)[C@H](C(C)C)N(C)C(=O)OCc1ccc(NC(=O)[C@H](CCCNC(N)=O)NC(=O)[C@@H](NC(=O)CCCCCN2C(=O)CC(SCCC(=O)N[C@@H](Cc3cn(CCOCCNCCCCCCOc4cc(OCCCc5c(C)n[nH]c5C)cc(C(=O)O)c4)nn3)C(=O)NCCCCCC(=O)NCCCC[C@H](NC(=O)N[C@@H](CCC(=O)O)C(=O)O)C(=O)O)C2=O)C(C)C)cc1)C(C)C (some centres unmarked) the IC50 was 784 nM (cell proliferation, MTT; with: transthyretin).
The growth inhibition of C[C@@H](N)[C@H](O)CCCCCCCC(=O)CCCCCCCCCCCCCC[C@@H](O[C@@H]1O[C@H](CO)[C@H](O)[C@H](O)[C@H]1O)[C@@H](C)N is reported as 99 ± 0.16% (cytotoxicity; concentration not given).
For CCCCCCCCCCCCCCC(Br)C(=O)O (centres unmarked), “mitochondrial area decrease” read 2.8 fold (150 µM, 1 h; relative to: methyl palmitate).
CC[C@H](C)[C@@H]([C@@H](CC(=O)N1CCC[C@H]1[C@H](OC)[C@@H](C)C(=O)N[C@@H](Cc1ccccc1)C(=O)O)OC)N(C)C(=O)[C@@H](NC(=O)[C@@H](NC)C(C)C)C(C)C gave an IC50 of 834 ± 40 nM (cell growth, MTT; 72 h).
The IC50 of N.N.[Cl][Pt][Cl] is reported as 17600 ± 5700 nM (cell growth, MTT; 48 h, LED photolysed 1 h).
For CC(N)C(O)CCCCCCCCCCCCCCC(=O)CCCCCCCC(O)C(C)N (centres unmarked), the growth inhibition was 99 ± 0.12% (cytotoxicity; concentration not given).
COc1c(C)c2c(c(O)c1C/C=C(\C)CCC(=O)O)C(=O)OC2 gave an IC50 of 1410 nM (cell proliferation).
CC[C@H](C)[C@@H]([C@@H](CC(=O)N1CCC[C@H]1[C@H](OC)[C@@H](C)C(=O)N[C@@H](Cc1ccccc1)C(=O)O)OC)N(C)C(=O)[C@@H](NC(=O)[C@H](C(C)C)N(C)C(=O)CCSSC[C@H](NC(=O)[C@@H](NC(=O)CNC(=O)[C@H](CCC(=O)O)NC(=O)[C@H](CC(=O)O)NC(=O)[C@H](C)NC(=O)[C@H](CC(=O)O)NC(=O)[C@@H](NC(=O)[C@H](CC(C)C)NC(=O)[C@H](CC(C)C)NC(=O)[C@H](C)NC(=O)[C@H](CC(C)C)NC(=O)[C@H](CCCC(=O)O)NC(=O)[C@H](CC(C)C)NC(=O)[C@H](CC(C)C)NC(=O)[C@H](CC(C)C)NC(=O)[C@H](CC(C)C)NC(=O)[C@@H]1CCCN1C(=O)[C@@H](NC(=O)[C@@H](NC(=O)[C@H](Cc1ccccc1)NC(=O)[C@H](CC(C)C)NC(=O)[C@H](Cc1c[nH]c2ccccc12)NC(=O)[C@H](CC(C(=O)O)C(=O)O)NC(=O)[C@H](C)NC(=O)[C@H](Cc1ccc(O)cc1)NC(=O)[C@H](CCCNC(=N)N)NC(=O)[C@H](C)NC(=O)[C@H](Cc1c[nH]c2ccccc12)NC(=O)[C@H](Cc1ccc(O)cc1)NC(=O)[C@@H](NC(=O)[C@@H]1CCCN1C(=O)[C@H](CC(N)=O)NC(=O)[C@H](CCC(N)=O)NC(=O)[C@H](CCC(=O)O)NC(=O)[C@H](C)NC(=O)[C@H](C)N)[C@@H](C)CC)[C@@H](C)O)[C@@H](C)O)C(C)C)[C@@H](C)O)C(=O)NCC(N)=O)C(C)C gave a selectivity ratio of 67 fold (cell growth, MTT; 2 h; relative to: IC50 pH 7.4 over IC50 pH 5.0).
With COc1cc(C)[nH]c(=O)c1CNC(=O)c1c(C)n([C@H](C)C2CCN(CC(F)(F)F)CC2)c2ccccc12 the EC50 was 26 nM (histone methylation reduction, AlphaLISA, refers to: H3K27me3; 72 h).
The selectivity ratio of CC[C@H](C)[C@@H]([C@@H](CC(=O)N1CCC[C@H]1[C@H](OC)[C@@H](C)C(=O)N[C@@H](Cc1ccccc1)C(=O)O)OC)N(C)C(=O)[C@@H](NC(=O)[C@H](C(C)C)N(C)C(=O)CCSSC[C@H](NC(=O)[C@@H](NC(=O)CNC(=O)[C@H](CCC(=O)O)NC(=O)[C@H](CC(=O)O)NC(=O)[C@H](C)NC(=O)[C@H](CC(=O)O)NC(=O)[C@@H](NC(=O)[C@H](CC(C)C)NC(=O)[C@H](CC(C)C)NC(=O)[C@H](C)NC(=O)[C@H](CC(C)C)NC(=O)[C@H](CC(=O)O)NC(=O)[C@H](CC(C)C)NC(=O)[C@H](CC(C)C)NC(=O)[C@H](CC(C)C)NC(=O)[C@H](CC(C)C)NC(=O)[C@@H]1CCCN1C(=O)[C@@H](NC(=O)[C@@H](NC(=O)[C@H](Cc1ccccc1)NC(=O)[C@H](CC(C)C)NC(=O)[C@H](Cc1c[nH]c2ccccc12)NC(=O)[C@H](CC(=O)O)NC(=O)[C@H](C)NC(=O)[C@H](Cc1ccc(O)cc1)NC(=O)[C@H](CCCNC(=N)N)NC(=O)[C@H](C)NC(=O)[C@H](Cc1c[nH]c2ccccc12)NC(=O)[C@H](Cc1ccc(O)cc1)NC(=O)[C@@H](NC(=O)[C@@H]1CCCN1C(=O)[C@H](CC(N)=O)NC(=O)[C@H](CCC(N)=O)NC(=O)[C@H](CCC(=O)O)NC(=O)[C@H](C)NC(=O)[C@H](C)N)[C@@H](C)CC)[C@@H](C)O)[C@@H](C)O)C(C)C)[C@@H](C)O)C(=O)NCC(N)=O)C(C)C is reported as 22 fold (cell growth, MTT; 2 h; relative to: IC50 pH 7.4 over IC50 pH 5.0).
For CCCCCCCCc1ccc(C(=O)Nc2ccccc2C(=O)OCC)cc1, the IC50 was greater than 100000 nM (cell proliferation).

For quick reference, copied from above:
The growth inhibition of C[C@@H](N)[C@H](O)CCCCCCCC(=O)CCCCCCCCCCCCCC[C@@H](O[C@@H]1O[C@H](CO)[C@H](O)[C@H](O)[C@H]1O)[C@@H](C)N is reported as 99 ± 0.16% (cytotoxicity; concentration not given).
CC[C@H](C)[C@@H]([C@@H](CC(=O)N1CCC[C@H]1[C@H](OC)[C@@H](C)C(=O)N[C@@H](Cc1ccccc1)C(=O)O)OC)N(C)C(=O)[C@@H](NC(=O)[C@@H](NC)C(C)C)C(C)C gave an IC50 of 834 ± 40 nM (cell growth, MTT; 72 h).
